{"data": "Measurements of several laboratories", "organism": "Mycobacterium tuberculosis", "note": "Lines come from different studies, so protocols differ."}
{"Compound": "c1ccc(-c2ccc(-c3ccnc(CN4CCC5(CCCCC5)CC4)c3)cc2)cc1", "test": "microbial growth, resazurin", "system": "H37RV", "MIC": "0.0156 µg/mL"}
{"Compound": "Nc1ncnc2c1ncn2[C@@H]1O[C@H](COS(=O)(=O)NC(=O)CCCCCCCCCCO)[C@@H](O)[C@H]1O", "test": "broth microdilution", "system": "H37Rv, GAST medium", "setting": "MIC at >99% growth inhibition", "MIC": "3.13 to 6.25 µM"}
{"Compound": "Cc1ccccc1NCc1ccc(Oc2ccccn2)cc1", "system": "H37Rv, 7H9/ADC/Tween medium", "setting": "1 weeks", "MIC": "> 100 µM"}
{"Compound": "Cc1ccn2c(C(=O)NCc3ccccc3)c(-c3ccccc3)nc2c1", "test": "microplate alamar blue", "system": "H37Rv (ATCC 27294), 7H12 medium", "setting": "replicating bacteria, range", "MIC": "2.8 to 3 µM"}
{"Compound": "Cc1cccc(NCc2ccc(Oc3ccccn3)cc2)c1", "system": "H37Rv, 7H9/ADC/Tween medium", "setting": "1 weeks", "MIC": "> 100 µM"}
{"Compound": "COC(=O)CCCCCCCCCCC(=O)NS(=O)(=O)OC[C@H]1O[C@@H](n2cnc3c(N)ncnc32)[C@H](O)[C@@H]1O", "test": "broth microdilution", "system": "H37Rv, GAST medium", "setting": "MIC at >99% growth inhibition", "MIC": "3.13 to 6.25 µM"}
{"Compound": "CO[C@H]1/C=C/O[C@@]2(C)Oc3c(C)c(O)c4c(O)c(c(/C=N/N5CCN(C)CC5)c(O)c4c3C2=O)NC(=O)/C(C)=C\\C=C\\[C@H](C)[C@H](O)[C@@H](C)[C@@H](O)[C@@H](C)[C@H](OC(C)=O)[C@@H]1C", "test": "microplate alamar blue", "system": "H37Rv (ATCC 27294), 7H12 medium", "setting": "replicating bacteria, range", "MIC": "0.03 to 0.05 µM"}
{"Compound": "CC(C)c1ccc(-c2ccnc(CNC3CCCCCC3)c2)cc1", "test": "microbial growth, resazurin", "system": "H37RV", "MIC": "1 to 2 µg/mL"}
{"Compound": "Oc1c(Cl)cc(Cl)cc1Sc1cc(Cl)cc(Cl)c1O", "test": "microbial growth", "system": "H37RV", "setting": "10 days", "MIC": "9.9 µg/mL"}
{"Compound": "C#CCOC(=O)COc1ccc(-c2nc3cc(NC(=O)[C@H](C)Oc4cccc(Cl)c4Cl)ccc3o2)cc1", "system": "H37Rv ATCC 27294, GAST/Fe and 7H9/ADC/Tween", "setting": "168 h", "MIC": "< 1 µM"}
{"Compound": "CC(C)c1ccc(-c2ccnc(CN3CCC4(CC3)OCCCO4)c2)cc1", "test": "microbial growth, resazurin", "system": "H37RV", "MIC": "1 to 2 µg/mL"}
{"Compound": "c1ccc(NCc2ccc(Oc3ccccn3)cc2)cc1", "system": "H37Rv, GAST-Fe medium", "setting": "2 weeks, pH 6.6", "MIC": "20 to 40 µM"}
{"Compound": "C=CCCCCCCCCC(=O)NS(=O)(=O)OC[C@H]1O[C@@H](n2cnc3c(N)ncnc32)[C@H](O)[C@@H]1O", "test": "broth microdilution", "system": "H37Rv, GAST medium", "setting": "MIC at >99% growth inhibition", "MIC": "0.39 to 0.78 µM"}
{"Compound": "Cc1ccn2c(C(=O)NCc3ccccc3)c(C)nc2c1", "system": "H37Rv, glycerol-alanine-salts medium", "setting": "90% growth inhibition", "MIC": "0.2 µM"}
{"Compound": "O=C(OCc1ccccc1)c1coc(-c2ccccc2)n1", "test": "microplate alamar blue", "system": "H37Rv ATCC 27294", "setting": "GAS medium, replicating", "MIC": "6 µM"}
{"Compound": "COc1ccc(NCc2ccc(Oc3ccccn3)cc2)cc1", "system": "H37Rv, 7H9/ADC/Tween medium", "setting": "2 weeks", "MIC": "82 µM"}
{"Compound": "COc1ccc(-c2nc3cc(NC(=O)[C@H](C)Oc4cccc(F)c4F)ccc3o2)cc1", "system": "H37Rv ATCC 27294, GAST/Fe and 7H9/ADC/Tween", "setting": "168 h", "MIC": "≤ 5 µM"}
{"Compound": "Clc1ccccc1NCc1ccc(Oc2ccccn2)cc1", "system": "H37Rv, GAST-Fe medium", "setting": "2 weeks, pH 6.6", "MIC": "20 to 40 µM"}
{"Compound": "C[C@H](Nc1cccc(Cl)c1Cl)C(=O)Nc1ccc2oc(-c3ccc(C#N)cc3)nc2c1", "system": "H37Rv ATCC 27294, GAST/Fe and 7H9/ADC/Tween", "setting": "168 h", "MIC": "≤ 5 µM"}
{"Compound": "COc1cccc(OCCCCCCCCCCC(=O)NS(=O)(=O)OC[C@H]2O[C@@H](n3cnc4c(N)ncnc43)[C@H](O)[C@@H]2O)c1", "test": "broth microdilution", "system": "H37Rv, GAST medium", "setting": "MIC at >99% growth inhibition", "MIC": "25 to 50 µM"}
{"Compound": "O=C(OCc1ccccc1)[C@@H]1COC(c2ccccc2)=N1", "test": "microplate alamar blue", "system": "H37Rv ATCC 27294", "setting": "GAS medium, replicating", "MIC": "5 µM"}
{"Compound": "Nc1ncnc2c1ncn2[C@@H]1O[C@H](COS(=O)(=O)NC(=O)CCCCCCCCCCOc2cccc(Cl)c2)[C@@H](O)[C@H]1O", "test": "broth microdilution", "system": "H37Rv, GAST medium", "setting": "MIC at >99% growth inhibition", "MIC": "25 to 50 µM"}
{"Compound": "C[C@H](Oc1cccc(Cl)c1Cl)C(=O)Nc1ccc2oc(-c3ccc(C#N)cc3)nc2c1", "system": "H37Rv ATCC 27294, GAST/Fe and 7H9/ADC/Tween", "setting": "168 h", "MIC": "≤ 5 µM"}
{"Compound": "CC(C)c1ccc(-c2ccnc(CN3CCC4(CC3)CC4)c2)cc1", "test": "microbial growth, resazurin", "system": "H37RV", "MIC": "1 to 2 µg/mL"}
{"Compound": "O=C(OCc1ccccc1)c1csc(-c2ccccc2)n1", "test": "microplate alamar blue", "system": "H37Rv (ATCC 27294), GAS medium", "setting": "replicating bacteria, range", "MIC": "1.5 to 8.5 µM"}
{"Compound": "Nc1ncnc2c1ncn2[C@@H]1O[C@H](COS(=O)(=O)NC(=O)CCCCCCCCCCOc2ccc(Cl)cc2)[C@@H](O)[C@H]1O", "test": "broth microdilution", "system": "H37Rv, GAST medium", "setting": "MIC at >99% growth inhibition", "MIC": "6.25 to 12.5 µM"}
{"Compound": "O=C(OCc1ccccc1)c1cc(-c2ccccc2)on1", "test": "microplate alamar blue", "system": "H37Rv (ATCC 27294), GAS medium", "setting": "replicating bacteria, range", "MIC": "1.1 to 2.9 µM"}
{"Compound": "CCOC(=O)COc1ccc(-c2nc3cc(NC(=O)[C@H](C)Oc4cccc(Cl)c4Cl)ccc3o2)cc1", "system": "H37Rv ATCC 27294, GAST/Fe and 7H9/ADC/Tween", "setting": "168 h", "MIC": "< 1 µM"}
{"Compound": "COc1ccc(-c2ccc(C(=O)OCc3ccccc3)cn2)cc1", "test": "microplate alamar blue", "system": "H37Rv (ATCC 27294), 7H12 medium", "setting": "replicating bacteria, range", "MIC": "5.8 to 11.9 µM"}
{"Compound": "CC1CCN(Cc2cc(-c3ccc(C(F)(F)F)cc3)ccn2)CC1", "test": "microbial growth, resazurin", "system": "H37RV", "MIC": "4 to 8 µg/mL"}
{"Compound": "Cc1cc2nc(C)c(C(=O)OCc3ccccc3)n2c(C)n1", "test": "microplate alamar blue", "system": "H37Rv (ATCC 27294), GAS medium", "setting": "replicating bacteria, range", "MIC": "0.9 to 1.4 µM"}
{"Compound": "Clc1cccc(NCc2ccc(Oc3ccccn3)cc2)c1", "system": "H37Rv, GAST-Fe medium", "setting": "1 weeks, pH 6.6", "MIC": "20 µM"}
{"Compound": "CCCCCCCCCC[C@H](C)C(=O)NS(=O)(=O)OC[C@H]1O[C@@H](n2cnc3c(N)ncnc32)[C@H](O)[C@@H]1O", "test": "broth microdilution", "system": "H37Rv, GAST medium", "setting": "MIC at >99% growth inhibition", "MIC": "50 µM"}
{"Compound": "c1ccc(-c2ccc(-c3ccnc(CN4CCC5(CCCC5)CC4)c3)cc2)cc1", "test": "Alamar Blue", "system": "H37Rv", "MIC": "0.0156 µg/mL"}
{"Compound": "Fc1ccccc1NCc1ccc(Oc2ccccn2)cc1", "system": "H37Rv, 7H9/ADC/Tween medium", "setting": "2 weeks", "MIC": "> 100 µM"}
{"Compound": "O=[N+]([O-])c1cn2c(n1)OC[C@@H](NCc1ccc(OC(F)(F)F)cc1O)C2", "test": "growth", "system": "replicating", "setting": "aerobic", "MIC": "< 0.1 µM"}
{"Compound": "C[C@H](Nc1cccc(F)c1F)C(=O)Nc1ccc2oc(-c3ccc(C#N)cc3)nc2c1", "test": "microbial growth", "system": "ATCC27294 H37RV", "setting": "7 days", "MIC": "1 µM"}
{"Compound": "Fc1ccc(NCc2ccc(Oc3ccccn3)cc2)cc1", "system": "H37Rv, GAST-Fe medium", "setting": "2 weeks, pH 6.6", "MIC": "20 to 40 µM"}
{"Compound": "C[C@H](Oc1cccc(Cl)c1Cl)C(=O)Nc1ccc2oc(-c3ccc(C(=O)O)cc3)nc2c1", "system": "H37Rv ATCC 27294, GAST/Fe medium without guanine", "setting": "1 week", "MIC": "≤ 5 µM"}
{"Compound": "Nc1ncnc2c1ncn2[C@@H]1O[C@H](COS(=O)(=O)NC(=O)CCCCCCCCCCC(=O)O)[C@@H](O)[C@H]1O", "test": "broth microdilution", "system": "H37Rv, GAST medium", "setting": "MIC at >99% growth inhibition", "MIC": "25 to 50 µM"}
{"note": "For quick reference, copied from above:"}
{"Compound": "c1ccc(-c2ccc(-c3ccnc(CN4CCC5(CCCCC5)CC4)c3)cc2)cc1", "test": "microbial growth, resazurin", "system": "H37RV", "MIC": "0.0156 µg/mL"}
{"Compound": "Nc1ncnc2c1ncn2[C@@H]1O[C@H](COS(=O)(=O)NC(=O)CCCCCCCCCCOc2cccc(Cl)c2)[C@@H](O)[C@H]1O", "test": "broth microdilution", "system": "H37Rv, GAST medium", "setting": "MIC at >99% growth inhibition", "MIC": "25 to 50 µM"}
{"Compound": "O=C(OCc1ccccc1)[C@@H]1COC(c2ccccc2)=N1", "test": "microplate alamar blue", "system": "H37Rv ATCC 27294", "setting": "GAS medium, replicating", "MIC": "5 µM"}
